Published values of several laboratories.
Compare with care: the assays were run in different laboratories.
Organism: Pseudomonas aeruginosa

Compound	method	strain	medium	time	temperature	notes	MIC
N=C(N)c1ccc(OCc2cc(Br)cc(COc3ccc(C(=N)N)cc3)c2)cc1		ATCC 27853				compound alone	> 200 µg/mL
O=C(Cc1ccccc1)N[C@@H]1C(=O)N2C(C(=O)O)=C(CSc3cccc4cccnc34)C[S+]([O-])[C@H]12 (some centres unmarked)		27853					> 128 µg/mL
N#Cc1ccc2[nH]c(CNCC34CC5CC(CC(C5)C3)C4)nc2c1		ATCC 27853					> 128 µg/mL
NC[C@H]1O[C@H](O[C@H]2[C@H](O)[C@@H](O[C@H]3O[C@H](CO)[C@@H](O)[C@H](N)[C@H]3O)[C@H](N)C[C@@H]2N)[C@H](O)[C@@H](O)[C@@H]1O	broth microdilution	PAO1	cation-adjusted Mueller-Hinton broth	16 h	37 °C		32 µg/mL
CC(C)(O/N=C(\C(=O)N[C@@H]1C(=O)N2C(C(=O)[O-])=C(C[n+]3ccccc3)CS[C@H]12)c1csc(N)n1)C(=O)O		R13-23 PER-producing isolate					> 128 µg/mL
Oc1c(Br)cc(Br)c2nc3ccccc3nc12							> 100 µM
CC(C)C[C@@H]1NC(=O)[C@@H](Cc2ccccc2)NC(=O)[C@H](CCN)NC(=O)[C@@H](NC(=O)[C@H](CCN)NC(=O)[C@@H](N)[C@@H](C)O)CCNC(=O)[C@H]([C@@H](C)O)NC(=O)[C@H](CCN)NC(=O)[C@H](CCN)NC1=O		ATCC 27853				compound alone	50 µg/mL
CC(C)Oc1c(NC(=O)c2ccc(NC(=O)[C@H](CC(N)=O)NC(=O)c3ccc(NC(=O)c4ccc(C#N)c(F)c4)cc3)cc2)ccc(C(=O)Nc2ccc(C(=O)O)cc2)c1O		PA14 ΔmexAB					0.5 µg/mL
C[C@H](N)C(=O)N[C@H](C(=O)N[C@@H](CS)C(=O)N[C@@H](Cc1ccc(O)cc1)C(=O)N[C@@H](CS)C(=O)N[C@@H](CCCNC(=N)N)C(=O)N[C@H](C(=O)NCC(=O)N[C@@H](CCCNC(=N)N)C(=O)O)[C@@H](C)O)[C@@H](C)O	broth turbidity	ATCC 27853					50 µM
Cc1cc(C(=O)Nc2ccc(C(=O)N[C@@H](CC(N)=O)C(=O)Nc3ccc(C(=O)Nc4ccc(C(=O)Nc5ccc(C(=O)O)cc5)c(O)c4OC(C)C)cc3)cc2)ccc1C#N		PA14 ΔmexAB					0.5 µg/mL
CNC(C)C1CCC(N)C(OC2C(N)CC(N)C(OC3OCC(C)(O)C(NC)C3O)C2O)O1 (centres unmarked)	broth microdilution, absorbance	clinical isolate P.A11	RPMI with 1640% FBS	24 h	37 °C		0.78 µM
N=C(N)c1ccc(OCc2ccccc2COc2ccc(C(=N)N)cc2)cc1		ATCC 27853				compound alone	> 200 µg/mL
CN(C)c1ccc2nc3ccc(=[N+](C)C)cc-3sc2c1		ATCC 27853		18 h	37 °C	dark	> 128 µM
O=[N+]([O-])c1ccc2[nH]c(CNCC34CC5CC(CC(C5)C3)C4)nc2c1		ATCC 27853					> 128 µg/mL
Cc1onc(-c2ccccc2)c1C(=O)N[C@@H]1C(=O)N2[C@@H]1SC(C)(C)[C@@H]2C(=O)O		CIP 27853	Mueller Hinton broth	overnight	37 °C		16 µg/mL
CCO/N=C(\C(=O)N[C@@H]1C(=O)N2C(C(=O)[O-])=C(Sc3nc(-c4cc[n+](C)cc4)cs3)CS[C@H]12)c1nsc(NP(=O)(O)O)n1	broth microdilution	clinical isolate	Mueller-Hinton broth	24 h	37 °C		> 400 µM
O=C(O)c1cn(C2CC2)c2cc(N3CCNCC3)c(F)cc2c1=O	broth microdilution						0.063 µg/mL
CO/N=C(\C(=O)N[C@@H]1C(=O)N2C(C(=O)O)=C(CSc3nc(=O)c(=O)[nH]n3C)CS[C@H]12)c1csc(N)n1		CIP 27853	Mueller Hinton broth	overnight	37 °C		> 512 µg/mL
CC[C@H](C)CCCCC(=O)N[C@@H](CCN)C(=O)N[C@H](C(=O)N[C@@H](CCN)C(=O)N[C@H]1CCNC(=O)[C@H]([C@@H](C)O)NC(=O)[C@H](CCN)NC(=O)[C@H](CCN)NC(=O)[C@H](CC(C)C)NC(=O)[C@@H](CC(C)C)NC(=O)[C@H](CCN)NC1=O)[C@@H](C)O	broth microdilution	ATCC 10145	cation-adjusted Mueller-Hinton broth				0.855 µM
CC1(C)S[C@@H]2[C@H](NC(=O)[C@H](N)c3ccc(O)cc3)C(=O)N2[C@H]1C(=O)O	broth microdilution	clinical isolate	Mueller-Hinton broth	24 h	37 °C		> 400 µM
CC1(C)S[C@@H]2[C@H](NC(=O)[C@H](N)c3ccccc3)C(=O)N2[C@H]1C(=O)O		ATCC 27853		18 h	37 °C	LED irradiation 10 min	> 128 µM
O=C(Cc1ccccc1)N[C@@H]1C(=O)N2C(C(=O)O)=C(CSc3cccc4cccnc34)CS[C@H]12		27853					> 128 µg/mL
CCN1CCN(C(=O)N[C@@H](C(=O)N[C@@H]2C(=O)N3[C@@H]2SC(C)(C)[C@@H]3C(=O)O)c2ccccc2)C(=O)C1=O		R13-23 PER-producing isolate					> 128 µg/mL
